Measurements of several laboratories.
Compare with care: the assays were run in different laboratories. ± gives the spread as reported.
GATD3: Glutamine amidotransferase-like class 1 domain-containing protein 3, mitochondrial (GATD3, Homo sapiens, UniProt P0DPI2)
Sequence of UniProt P0DPI2 (whole entry, looked up): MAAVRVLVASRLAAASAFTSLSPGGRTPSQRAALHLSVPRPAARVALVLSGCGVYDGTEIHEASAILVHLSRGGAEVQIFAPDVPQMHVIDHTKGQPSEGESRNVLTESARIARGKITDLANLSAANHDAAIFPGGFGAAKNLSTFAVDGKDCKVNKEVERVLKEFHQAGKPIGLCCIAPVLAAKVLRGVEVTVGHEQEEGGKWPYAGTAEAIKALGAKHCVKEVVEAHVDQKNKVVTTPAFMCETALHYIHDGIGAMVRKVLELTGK
GSPT1/CRBN with cereblon: GSPT1/CRBN, with cereblon (Homo sapiens, UniProt P15170+Q96SW2)
Sequence of UniProt Q96SW2 (whole entry, looked up): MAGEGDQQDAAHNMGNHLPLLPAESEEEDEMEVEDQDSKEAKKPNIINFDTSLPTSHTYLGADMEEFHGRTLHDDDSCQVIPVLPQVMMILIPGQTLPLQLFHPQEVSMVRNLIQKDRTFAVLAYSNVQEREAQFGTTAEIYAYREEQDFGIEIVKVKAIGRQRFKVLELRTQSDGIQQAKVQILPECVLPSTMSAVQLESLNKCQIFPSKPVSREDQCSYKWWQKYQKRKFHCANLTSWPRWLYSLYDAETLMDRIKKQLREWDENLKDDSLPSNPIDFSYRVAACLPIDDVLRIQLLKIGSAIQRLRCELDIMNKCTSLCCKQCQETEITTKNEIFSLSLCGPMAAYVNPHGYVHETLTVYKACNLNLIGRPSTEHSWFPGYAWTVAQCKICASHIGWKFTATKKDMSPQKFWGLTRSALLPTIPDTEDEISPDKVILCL
Sequence of UniProt P15170 (whole entry, looked up): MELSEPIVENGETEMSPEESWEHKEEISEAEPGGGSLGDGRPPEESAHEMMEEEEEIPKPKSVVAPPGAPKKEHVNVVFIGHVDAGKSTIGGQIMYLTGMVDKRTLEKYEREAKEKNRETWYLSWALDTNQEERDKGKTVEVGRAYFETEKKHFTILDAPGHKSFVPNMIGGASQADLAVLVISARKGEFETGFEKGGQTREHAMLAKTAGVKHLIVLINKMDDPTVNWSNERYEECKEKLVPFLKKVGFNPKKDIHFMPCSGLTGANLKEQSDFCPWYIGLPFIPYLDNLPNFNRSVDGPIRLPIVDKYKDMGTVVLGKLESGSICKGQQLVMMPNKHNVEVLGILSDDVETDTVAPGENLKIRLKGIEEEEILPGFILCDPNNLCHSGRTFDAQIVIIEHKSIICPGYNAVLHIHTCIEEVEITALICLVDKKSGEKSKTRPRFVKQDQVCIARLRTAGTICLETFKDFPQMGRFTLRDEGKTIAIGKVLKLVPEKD
PLAU: Urokinase-type plasminogen activator (PLAU, Homo sapiens, UniProt P00749)
USP5 ZnF-UBD domain: Ubiquitin carboxyl-terminal hydrolase 5, ZnF-UBD domain (USP5, Homo sapiens, UniProt P45974)
Sequence of UniProt P45974 (whole entry, looked up): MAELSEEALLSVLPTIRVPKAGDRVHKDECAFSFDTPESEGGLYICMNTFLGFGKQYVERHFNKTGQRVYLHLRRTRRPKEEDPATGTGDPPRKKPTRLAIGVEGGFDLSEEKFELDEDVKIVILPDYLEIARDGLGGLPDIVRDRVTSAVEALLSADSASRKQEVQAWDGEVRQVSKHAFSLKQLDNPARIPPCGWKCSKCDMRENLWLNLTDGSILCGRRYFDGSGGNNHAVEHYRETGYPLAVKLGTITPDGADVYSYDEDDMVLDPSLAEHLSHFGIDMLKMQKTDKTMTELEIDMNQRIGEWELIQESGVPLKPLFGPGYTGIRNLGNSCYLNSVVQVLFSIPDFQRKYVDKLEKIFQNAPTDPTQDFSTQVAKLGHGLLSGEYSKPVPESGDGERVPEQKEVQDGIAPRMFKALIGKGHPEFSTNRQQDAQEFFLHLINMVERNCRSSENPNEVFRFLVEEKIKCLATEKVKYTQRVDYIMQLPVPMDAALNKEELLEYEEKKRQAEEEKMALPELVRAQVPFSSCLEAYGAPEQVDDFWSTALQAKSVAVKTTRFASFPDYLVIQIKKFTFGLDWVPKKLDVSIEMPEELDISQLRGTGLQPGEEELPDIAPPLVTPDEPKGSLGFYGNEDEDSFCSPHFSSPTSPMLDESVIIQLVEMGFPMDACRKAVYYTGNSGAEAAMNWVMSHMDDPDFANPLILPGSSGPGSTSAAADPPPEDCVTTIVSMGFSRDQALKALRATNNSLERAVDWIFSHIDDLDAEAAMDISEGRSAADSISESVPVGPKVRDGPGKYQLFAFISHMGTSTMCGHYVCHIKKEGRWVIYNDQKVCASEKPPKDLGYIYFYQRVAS
Tumor necrosis factor receptor superfamily member 1A extracellular domain: Tumor necrosis factor receptor superfamily member 1A, extracellular domain (Homo sapiens, UniProt P19438)
Sequence of UniProt P19438 (whole entry, looked up): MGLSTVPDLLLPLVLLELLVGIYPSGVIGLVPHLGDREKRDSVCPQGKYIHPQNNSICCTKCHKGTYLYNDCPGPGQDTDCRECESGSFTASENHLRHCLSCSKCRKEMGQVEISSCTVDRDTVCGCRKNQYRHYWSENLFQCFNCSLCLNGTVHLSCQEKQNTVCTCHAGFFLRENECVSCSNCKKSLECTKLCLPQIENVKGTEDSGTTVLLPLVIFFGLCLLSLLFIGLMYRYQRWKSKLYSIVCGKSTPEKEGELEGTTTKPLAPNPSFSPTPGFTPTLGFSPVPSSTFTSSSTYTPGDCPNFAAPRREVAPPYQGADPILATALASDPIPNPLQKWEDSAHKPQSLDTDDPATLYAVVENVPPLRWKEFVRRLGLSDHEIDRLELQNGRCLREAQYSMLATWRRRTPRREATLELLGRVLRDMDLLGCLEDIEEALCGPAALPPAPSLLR
HDAC11: Histone deacetylase 11 (HDAC11, Homo sapiens, UniProt Q96DB2)
Sequence of UniProt Q96DB2 (whole entry, looked up): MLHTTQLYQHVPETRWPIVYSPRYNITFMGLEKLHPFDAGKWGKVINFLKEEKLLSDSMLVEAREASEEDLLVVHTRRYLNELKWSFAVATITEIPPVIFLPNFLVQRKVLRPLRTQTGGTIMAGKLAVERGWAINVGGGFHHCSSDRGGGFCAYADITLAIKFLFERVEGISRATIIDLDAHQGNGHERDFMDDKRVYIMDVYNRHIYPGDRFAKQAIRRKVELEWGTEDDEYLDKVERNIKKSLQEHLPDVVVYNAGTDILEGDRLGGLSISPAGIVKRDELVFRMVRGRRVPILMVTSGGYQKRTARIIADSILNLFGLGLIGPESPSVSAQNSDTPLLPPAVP
Sequence of UniProt Q14524 (whole entry, looked up): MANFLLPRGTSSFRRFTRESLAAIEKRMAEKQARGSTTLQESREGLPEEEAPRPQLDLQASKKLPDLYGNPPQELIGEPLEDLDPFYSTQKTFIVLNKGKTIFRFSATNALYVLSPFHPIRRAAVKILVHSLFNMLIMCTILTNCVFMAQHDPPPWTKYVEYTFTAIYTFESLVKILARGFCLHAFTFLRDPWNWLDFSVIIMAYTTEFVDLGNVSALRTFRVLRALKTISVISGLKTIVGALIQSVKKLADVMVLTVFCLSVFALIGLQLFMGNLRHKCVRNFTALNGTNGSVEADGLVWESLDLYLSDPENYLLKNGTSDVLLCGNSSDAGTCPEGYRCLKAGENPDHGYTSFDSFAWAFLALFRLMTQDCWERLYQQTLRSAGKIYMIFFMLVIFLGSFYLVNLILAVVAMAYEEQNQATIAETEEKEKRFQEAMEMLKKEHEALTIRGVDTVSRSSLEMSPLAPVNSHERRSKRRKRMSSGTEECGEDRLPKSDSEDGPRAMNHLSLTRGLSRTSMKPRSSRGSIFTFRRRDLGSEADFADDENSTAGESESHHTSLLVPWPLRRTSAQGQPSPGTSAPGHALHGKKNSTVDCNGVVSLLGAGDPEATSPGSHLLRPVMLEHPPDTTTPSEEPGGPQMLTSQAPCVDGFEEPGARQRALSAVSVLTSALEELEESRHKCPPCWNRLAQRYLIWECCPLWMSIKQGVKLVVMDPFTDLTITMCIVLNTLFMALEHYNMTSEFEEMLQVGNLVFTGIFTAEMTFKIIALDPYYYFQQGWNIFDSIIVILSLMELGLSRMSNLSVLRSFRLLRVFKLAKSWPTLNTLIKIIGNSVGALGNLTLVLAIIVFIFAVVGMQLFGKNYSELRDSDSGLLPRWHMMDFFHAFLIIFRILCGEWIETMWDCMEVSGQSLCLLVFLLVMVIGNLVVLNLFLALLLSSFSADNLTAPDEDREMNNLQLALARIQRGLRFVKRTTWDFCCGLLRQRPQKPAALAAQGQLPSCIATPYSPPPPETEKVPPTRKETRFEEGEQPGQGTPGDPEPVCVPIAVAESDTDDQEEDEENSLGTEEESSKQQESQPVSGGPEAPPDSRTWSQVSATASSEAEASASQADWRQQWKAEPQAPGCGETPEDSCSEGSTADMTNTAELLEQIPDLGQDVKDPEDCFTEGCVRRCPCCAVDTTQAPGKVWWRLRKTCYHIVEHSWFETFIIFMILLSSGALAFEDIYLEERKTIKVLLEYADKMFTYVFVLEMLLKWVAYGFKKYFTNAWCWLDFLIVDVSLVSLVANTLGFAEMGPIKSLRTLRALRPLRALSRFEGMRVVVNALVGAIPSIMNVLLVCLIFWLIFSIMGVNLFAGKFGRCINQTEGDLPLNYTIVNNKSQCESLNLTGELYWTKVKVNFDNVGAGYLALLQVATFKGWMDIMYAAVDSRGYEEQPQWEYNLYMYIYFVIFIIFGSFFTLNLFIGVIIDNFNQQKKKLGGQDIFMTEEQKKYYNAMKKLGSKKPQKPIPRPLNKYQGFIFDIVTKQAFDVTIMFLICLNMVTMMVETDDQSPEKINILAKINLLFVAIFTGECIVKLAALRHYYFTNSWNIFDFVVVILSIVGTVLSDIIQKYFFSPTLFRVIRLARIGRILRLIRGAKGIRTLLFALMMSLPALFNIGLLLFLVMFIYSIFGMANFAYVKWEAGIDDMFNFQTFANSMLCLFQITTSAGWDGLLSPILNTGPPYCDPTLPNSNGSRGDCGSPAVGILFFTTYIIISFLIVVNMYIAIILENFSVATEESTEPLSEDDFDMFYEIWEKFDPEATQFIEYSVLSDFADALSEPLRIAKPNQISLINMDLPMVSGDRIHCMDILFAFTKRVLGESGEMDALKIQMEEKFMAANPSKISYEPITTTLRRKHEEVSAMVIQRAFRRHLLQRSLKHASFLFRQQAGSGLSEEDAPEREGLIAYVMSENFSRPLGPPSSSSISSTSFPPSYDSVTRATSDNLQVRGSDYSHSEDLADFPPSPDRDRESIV

With `Cc1c(-c2ccc(N3CCc4cccc(C(=O)Nc5nc6ccccc6s5)c4C3)nc2C(=O)NCCOCCOCCOCCNc2cccc3c2C(=O)N(C2CCC(=O)NC2=O)C3=O)cnn1CC12CC3CC(CC(C3)C1)C2` (stereo not drawn) the DC50 was 0.00118 µM (Bcl-2-like protein 1 (BCL2L1, Homo sapiens, UniProt Q07817); degrader, western blot; MOLT-4; 16 h).
For `COc1ccc(-c2nc(N3CCOCC3)c3sc(CN(C)c4ncc(C(=O)NO)cn4)cc3n2)cn1`, the Kd was over 30.2 µM (GATD3; inhibitor, competition pulldown; SW620 and MV4-11 lysate; 1 h).
For `O=C1CCC(N2Cc3cc(Nc4noc5cc(F)ccc45)ccc3C2=O)C(=O)N1` (stereo not drawn), the DC50 was over 10 µM (GSPT1/CRBN with cereblon; degrader, HiBiT endpoint; HEK293 GSPT1-HiBiT; 24 h).
The Ki of `N=C(N)c1ccc2cc(/C=C/CCc3cccnc3)cc(Br)c2c1` is reported as 3.08 µM (PLAU; inhibitor; pH 7.4).
The Kd of `O=C(O)CSc1nnc(NC(=O)COc2ccccc2)s1` is reported as 315 µM (USP5 ZnF-UBD domain).
The IC50 of `CN1CCC(CNc2ccc3ncc(-c4cccc(OC(F)(F)F)c4)n3n2)CC1` is reported as 9.02 µM (Sodium channel protein type 5 subunit alpha (SCN5A, Homo sapiens, UniProt Q14524); membrane potential, blocker; 30 min, top concentration 10 µM).
For `COc1cc(/C=N/n2c(C)nc3ccc(Br)cc3c2=O)ccc1O`, the IC50 was 18 ± 1.41 µg/mL (collagenase; enzyme activity, inhibitor; together with: casein substrate).
For `COc1cc[nH]c1/C=C1\C(=O)Nc2ccc([N+](=O)[O-])c(N3CC[C@@H](O)C3)c21`, the remaining activity was under 10% (CMGC kinases (CDK, CLK, DYRK, GSK, SRPK); enzyme activity, KinaseProfiler; 1 µM; baseline: DMSO).
For `NCc1cc2c(cc1F)C(=O)N(C1CCC(=O)NC1=O)C2` (stereo not drawn), the DC50 was 0.001 µM (GSPT1/CRBN (Homo sapiens, UniProt P15170+Q96SW2); degrader, Western blot; Hep3B; 24 h).
`O=C(O)CNc1ncccn1` gave a Kd of over 1000 µM (USP5 ZnF-UBD domain).
`N#C[C@@]12C[C@@H]1[C@@H](n1cnc3c(NC4CCCC4)nc(I)nc31)[C@H](O)[C@@H]2O` has a Kb of 0.00893 µM (5-hydroxytryptamine receptor 2B (HTR2B, Homo sapiens, UniProt P41595); antagonist, Gq dissociation BRET; human receptor).
With `O=C1CCC(N2Cc3cc(NC(=O)c4ccccc4)ccc3C2=O)C(=O)N1` (stereo not drawn) the DC50 was over 10 µM (GSPT1/CRBN with cereblon; degrader, HiBiT endpoint; HEK293 GSPT1-HiBiT; 24 h).
`CCCCN(Cc1ccc(C(=O)NO)cc1)C(=O)Nc1ccccc1` gave a Kd of over 30.2 µM (GATD3; inhibitor, competition pulldown; SW620 and MV4-11 lysate; 1 h).
For `O=C(O)Cc1cccnc1`, the Kd was over 1000 µM (USP5 ZnF-UBD domain).
For `Nc1ccccc1NC(=O)c1ccc(CNc2nccc(-c3cccnc3)n2)cc1`, the Kd was over 30.2 µM (GATD3; inhibitor, competition pulldown; SW620 and MV4-11 lysate; 1 h).
For `CC(C)CN(CC(C)C)C(=O)c1ccc2ccc(N)nc2c1`, the Ki was over 100 µM (PLAU; inhibitor; pH 7.4).
The Kd of `O=C(O)c1cc(-c2ccc3occc3c2)ccn1` is reported as 540 ± 119 µM (Tumor necrosis factor receptor superfamily member 1A extracellular domain; SPR OneStep; immobilized target).
For `Cc1cc(OS(=O)(=O)Oc2ccc(C(C)C)cc2)cc(C(=O)NO)c1`, the Ki was 3.84 µM (HDAC11).
`N=C(N)c1ccc2ccccc2c1` has a Ki of 5.91 µM (PLAU; inhibitor; pH 7.4).
`NS(=O)(=O)c1ccc(NCC(=O)O)cc1` has a Kd of over 1000 µM (USP5 ZnF-UBD domain).
The Kd of `O=C(O)c1cc(-c2ccc(O)cc2)ccn1` is reported as 925 ± 72 µM (Tumor necrosis factor receptor superfamily member 1A extracellular domain; binding, SPR OneStep).
`O=C1CCC(N2Cc3cc(Nc4noc5ccccc45)ccc3C2=O)C(=O)N1` (stereo not drawn) has a DC50 of 0.002 µM (Cereblon/Casein kinase I alpha (CSNK1A1/CRBN, Homo sapiens, UniProt P48729+Q96SW2); degrader, HiBiT endpoint; human cells; 24 h).
`O=C1CN(c2nc(=O)c3cc(C(F)(F)F)cc([N+](=O)[O-])c3s2)CCN1C1CCCC1` has an IC50 of over 10 µM (Cytochrome P450 1A2 (CYP1A2, Homo sapiens, UniProt P05177); pH 7.4).
For `NC(=O)[C@H]1CCCN1C(=O)CCC(=O)O`, the Kd was 265 µM (USP5 ZnF-UBD domain).
The DC50 of `O=C1CCC(N2Cc3cc(NC(=O)c4cccc(F)c4)ccc3C2=O)C(=O)N1` (stereo not drawn) is reported as over 10 µM (GSPT1/CRBN with cereblon; degrader, HiBiT endpoint; HEK293 GSPT1-HiBiT; 24 h).
With `Cc1nc2ccc(Cl)cc2c(=O)n1NC1=NC(=O)CS1` the IC50 was 24.5 ± 0.71 µg/mL (collagenase; enzyme activity, inhibitor; together with: casein substrate).
`COc1ccc(OC)c(-c2ccnc(C(=O)O)c2)c1` has a Kd of 1220 ± 20 µM (Tumor necrosis factor receptor superfamily member 1A extracellular domain; SPR OneStep; immobilized target).
With `O=C(O)Cn1cnc2c(oc3ccccc32)c1=O` the Kd was 312 µM (USP5 ZnF-UBD domain).
`O=C(NO)c1cncc(OS(=O)(=O)Oc2ccc(C(F)(F)F)cc2)c1` gave a Ki of 2.19 µM (HDAC11).
`CC(C)C1c2cc(C3CC3c3cc(/C=C/C4CC4)c4cc(C(=N)N)ccc4c3)ccc2CCN1C` (stereo not drawn) has a Ki of 0.009 µM (PLAU; inhibitor; pH 7.4).
With `Cc1nc2ccc(Cl)cc2c(=O)n1NC(=O)CCl` the IC50 was 12.5 ± 2.12 µg/mL (collagenase; enzyme activity, inhibitor; together with: casein substrate).
`COc1cc(NC(=O)c2ccc3cc(C(=N)N)ccc3c2)cc(OC(C)C)c1` has a Ki of 0.033 µM (PLAU; inhibitor; pH 7.4).
With `O=C(O)CCc1ccccc1OCc1ccccn1` the Kd was over 1000 µM (USP5 ZnF-UBD domain).
With `COC(=O)Nc1ccc2nc(N)ccc2c1` the Ki was over 50 µM (PLAU; inhibitor; pH 7.4).
For `COc1cc(NCC(=O)Nn2c(C)nc3ccc(Cl)cc3c2=O)cc(OC)c1OC`, the IC50 was 34 ± 2.83 µg/mL (collagenase; enzyme activity, inhibitor; together with: casein substrate).
`O=C(O)CCN1C(=O)c2ccccc2S1(=O)=O` has a Kd of over 1000 µM (USP5 ZnF-UBD domain).
`Cc1nc2ccc(Br)cc2c(=O)n1/N=C/c1ccc(C(=O)O)cc1` has an IC50 of 24.9 ± 1.47 µg/mL (collagenase; enzyme activity, inhibitor; together with: casein substrate).
`N#Cc1cccc(C(=O)Nc2ccc3c(c2)CN(C2CCC(=O)NC2=O)C3=O)c1` (stereo not drawn) gave a DC50 of over 10 µM (GSPT1/CRBN with cereblon; degrader, HiBiT endpoint; HEK293 GSPT1-HiBiT; 24 h).
`Cc1c(OS(=O)(=O)Oc2ccc(C(C)(C)C)cc2)cccc1C(=O)NO` has a Ki of 0.581 µM (HDAC11).
`O=C(O)c1ccc(-c2ccc3[nH]ccc3c2)cn1` has a Kd of 317 ± 4 µM (Tumor necrosis factor receptor superfamily member 1A extracellular domain; binding, SPR OneStep).
With `Cn1nc(Nc2ccc3c(c2)CN(C2CCC(=O)NC2=O)C3=O)c2ccccc21` (stereo not drawn) the DC50 was over 10 µM (GSPT1/CRBN with cereblon; degrader, HiBiT endpoint; HEK293 GSPT1-HiBiT; 24 h).
`CC[C@@H]1[C@H](F)C(=O)N[C@@H]1COc1nccc2cc(C(N)=O)c(OC)cc12` gave an IC50 of 0.65 µM (Serine/threonine-protein kinase PRP4 homolog (PRPF4B, Homo sapiens, UniProt Q13523); ATP-site probe binding, ActivX profiling; THP-1 cell lysate; Lys2 site).

Repeated from above:
`N=C(N)c1ccc2ccccc2c1` has a Ki of 5.91 µM (PLAU; inhibitor; pH 7.4).
`COc1ccc(OC)c(-c2ccnc(C(=O)O)c2)c1` has a Kd of 1220 ± 20 µM (Tumor necrosis factor receptor superfamily member 1A extracellular domain; SPR OneStep; immobilized target).
For `Nc1ccccc1NC(=O)c1ccc(CNc2nccc(-c3cccnc3)n2)cc1`, the Kd was over 30.2 µM (GATD3; inhibitor, competition pulldown; SW620 and MV4-11 lysate; 1 h).
